Measured values gathered from unrelated publications.
Parts stem from different laboratories: compare values within a part only. Positions count from the first letter of the parent shown.

Block 1
Target: TAR DNA-binding protein 43, full length, His tag (TARDBP, Homo sapiens, UniProt Q13148, residues 1-414)
Technique: RNA Bind-n-Seq
Form: RNA
Matrix: in vitro
Concentration: 20 nM
Notes: 6-mer, flanks averaged, single round
Added: 150 mM LiCl
Baseline: input library
Direction: higher = stronger binding
For `GCAACU`, “6-mer enrichment (R)” read 0.845.
Under “6-mer enrichment (R)”, `CCUGCC` is recorded as 1.
`UUAAUA` — result for “6-mer enrichment (R)”: 1.01.
For `CUGGCG`, “6-mer enrichment (R)” read 0.974.
`UUCCGU`: “6-mer enrichment (R)” 0.927.
`AGGUAA`: “6-mer enrichment (R)” 0.894.
For `CCACUU`, “6-mer enrichment (R)” read 0.939.

Block 2
Target: Histone acetyltransferase KAT6A, both winged helices, GST fusion (KAT6A, Homo sapiens, UniProt Q92794, residues 1-181)
Technique: protein binding microarray
Form: double-stranded DNA, one strand shown
Matrix: in vitro
Concentration: not given
Notes: 8-mer, flanks averaged, mean of 2 arrays, mostly near background
Baseline: not given
Direction: higher = stronger binding
Construct (chain): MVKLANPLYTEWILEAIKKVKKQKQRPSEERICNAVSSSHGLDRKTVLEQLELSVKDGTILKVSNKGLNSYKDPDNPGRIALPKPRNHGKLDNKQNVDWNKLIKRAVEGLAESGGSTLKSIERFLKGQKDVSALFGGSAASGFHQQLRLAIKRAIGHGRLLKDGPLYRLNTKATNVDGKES
`CGGCGTTC` has an E-score of 0.306.
The E-score of `AAGGGCCC` is reported as -0.00119.
With `CGCGCGTC` the E-score was 0.412.
For `CGCACATC`, the E-score was 0.246.
The E-score of `ATCAGACA` is reported as -0.0446.
`ATAGAACG` has an E-score of 0.0989.
`ATACCTCC` gave an E-score of -0.102.
For `GCCGTCAA`, the E-score was 0.282.
`GGGCCAAC` has an E-score of -0.145.
The E-score of `CCAGTCCA` is reported as -0.196.
With `ACGGTTCG` the E-score was 0.171.
For `CTGGTCTC`, the E-score was -0.205.
For `CGGGAAAC`, the E-score was 0.228.
`CCTGTGAA` has an E-score of -0.0941.
The E-score of `AGGTGGAT` is reported as -0.209.
For `CACTTCCA`, the E-score was 0.0139.
With `CGTGATTA` the E-score was 0.0291.
For `GGCAGCAC`, the E-score was -0.0541.
`ACGCAATC` has an E-score of 0.107.
For `CGCCCTAA`, the E-score was 0.0974.
`CGCCTCAA` gave an E-score of 0.0747.
`CCATACCA` has an E-score of -0.129.

Block 3
Target: RNA binding protein fox-1 homolog 2, RRM domain, GST-SBP tag (RBFOX2, Homo sapiens, UniProt O43251-10, residues 100-194)
Technique: RNA Bind-n-Seq
Form: RNA
Matrix: in vitro
Concentration: 365 nM
Notes: natural RNA segment, single round, ends assumed
Baseline: no-protein control
Direction: higher = stronger binding
Constant ends, left off below: GGGAGUUCUACAGUCCGACGAUC … UGGAAUUCUCGGGUGCCAA
Target sequence (chain): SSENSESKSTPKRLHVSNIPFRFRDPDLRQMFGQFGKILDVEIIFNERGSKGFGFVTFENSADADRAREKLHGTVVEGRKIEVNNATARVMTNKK
Under “RBNS enrichment (R)”, `ACGCCAAGCUAAUUUUUGUAUUUUUUAGUAGAGAUGGGGUUUCACCAUCUUGGCCAGGCUGGUCUUGAAUUCCUGACCUCAGGUGAUCCACCCACCUUGGCCUCCCAAAG` is recorded as 2.38.
Under “RBNS enrichment (R)”, `UUCCUGCCCCCUCUGAGGCCUGGCUCUGUUUUAGGGAGAUCACUGGGCCCAGGCCUCAGCCCCAGUUCUACCUGGCUUGCUGUCACCGCUCUAGGGGUGGGGGACGUCCC` is recorded as 0.539.
For `CAGCCCAGGGGGUUCUGCUUAUGUGUCCCCGUGGCUCUCCACAAAAGGGAGCUAGCACCUCUCCAUCCCUUUCUCUUACUGCCAUUGGAAAUUAUUUUAGGGCUGAGAUA`, “RBNS enrichment (R)” read 0.372.
Under “RBNS enrichment (R)”, `UGCGGCUGGAGGAUCCUGAGGACAGGAGAGGGGCUUCGGCUGACCAGCCAUAGCACUUACCCAUAGAGACCGCUAGGGUUGGCCGUGCUGUGGUGGGGGAUGGAGGCCUG` is recorded as 0.365.
`AAAUAAGAGCUAUACUUACCAGAGUCAAUAGAUCACUGGCUUCUCUUUGCUGUCAAAAGCUACAUUGCACCCACAUGUCUGGAGUUCACACCACAAAUCUGCAGUUCAUU`: “RBNS enrichment (R)” 0.496.
`GAGGCAAUGUAGUAGUUUCACUUGAAGGAAAACCAUUAUAAAAUGACAGUCAAGUGCCAUCUGGAUCUUAAGGAGCUUCCAUUUCUCCAGCUCAGUCCAUUGGAAUAGUA`: “RBNS enrichment (R)” 0.521.
Under “RBNS enrichment (R)”, `CGAGCUGUUUACUAGGGAUCCCUCAUCUGUCCCUCCGGGACCUGGUGCUGCCUCUACCUGACACUCCCUUGGGCUCCCUGUAACCUCUUCAGAGGCCCUCGCUGCCAGCU` is recorded as 0.192.

Block 4
Target: CCNA2, cyclin fold, Cln2 fusion (human)
Technique: yeast growth competition, sequencing
Matrix: yeast
Notes: strong parent motif
Baseline: not given
Direction: higher = stronger binding
Starting sequence: WEE1 docking peptide (human); HKTFRKLRLFDTP
For `HKTFRGLRLFDTP [K6G]`, “normalised enrichment score” read 2.63.
Under “normalised enrichment score”, `HKTFRKLTLFDTP [R8T]` is recorded as 1.14.
For `HKTFRKLRLFDTR [P13R]`, “normalised enrichment score” read 0.49.
Under “normalised enrichment score”, `HKTFRHLRLFDTP [K6H]` is recorded as 1.06.
`LKTFRKLRLFDTP [H1L]` — result for “normalised enrichment score”: 0.151.
`HKTFLKLRLFDTP [R5L]` — result for “normalised enrichment score”: 2.15.
`HKTFRKLRLFWTP [D11W]`: “normalised enrichment score” 1.54.
`HKTFCKLRLFDTP [R5C]`: “normalised enrichment score” 1.02.
For `HKTFRKNRLFDTP [L7N]`, “normalised enrichment score” read 1.33.
Under “normalised enrichment score”, `HKTFRKVRLFDTP [L7V]` is recorded as 1.31.
Under “normalised enrichment score”, `HKTFRMLRLFDTP [K6M]` is recorded as 0.426.
`HKTFRKLRDFDTP [L9D]` — result for “normalised enrichment score”: 1.37.
For `HKTFRNLRLFDTP [K6N]`, “normalised enrichment score” read 2.02.
Under “normalised enrichment score”, `HKTFRKLPLFDTP [R8P]` is recorded as 0.427.

For quick reference, copied from above (block 4):
For `HKTFRKLRLFDTR [P13R]`, “normalised enrichment score” read 0.49.
Under “normalised enrichment score”, `HKTFRHLRLFDTP [K6H]` is recorded as 1.06.
`LKTFRKLRLFDTP [H1L]` — result for “normalised enrichment score”: 0.151.
`HKTFLKLRLFDTP [R5L]` — result for “normalised enrichment score”: 2.15.
